{"data": "Experimental data from different studies", "note": "Lines come from different studies, so protocols differ."}
{"SMILES": "CC(C)C12OC1C1OC13C1(C)CCC4=C(COC4=O)C1CC1OC13C2OC(=O)CCC(=O)OC1OC(CO)C(O)C(O)C1O (stereo not drawn)", "cell line": "NCI-H1299", "assay": "cell growth or viability, XTT", "setting": "47 h", "IC50": "6.4 µM"}
{"SMILES": "CC(C)C[C@H](NC(=O)[C@H](Cc1ccccc1)NC(=O)[C@H](C)NC(=O)[C@H](CS)NC(=O)CNC(=O)[C@@H](N)CO)C(=O)N[C@@H](CO)C(=O)N[C@H](C(=O)N[C@@H](CCCCN)C(=O)N[C@@H](CCCCN)C(=O)N[C@@H](CCC(N)=O)C(=O)N[C@@H](Cc1ccccc1)C(=O)N[C@@H](CCC(=O)O)C(=O)N[C@@H](CCC(=O)O)C(=O)N[C@@H](CC(C)C)C(=O)N[C@H](C(=O)N[C@@H](CC(C)C)C(=O)NCC(=O)N[C@@H](CCC(=O)O)C(=O)N[C@@H](Cc1ccccc1)C(=O)N[C@@H](CC(C)C)C(=O)N[C@@H](CCCCN)C(=O)N[C@@H](CC(C)C)C(=O)N[C@@H](CC(=O)O)C(=O)N[C@@H](CCCNC(=N)N)C(=O)N[C@H](CCCNC(=N)N)C(=O)N[C@@H](CCCNC(=N)N)C(=O)N[C@@H](CCCCN)C(=O)O)[C@@H](C)O)C(C)C", "cell line": "A549 SMAC-expressing", "assay": "cell death, annexin V/PI flow cytometry", "setting": "24 h, serum-free medium", "IC50": "12 µM"}
{"SMILES": "CCCCCCCC(=O)NCCCC[C@H](NC(=O)CCCCCCC)C(=O)N[C@@H](CCCCNC(=O)CCCCCCC)C(=O)NCC(=O)NCC(=O)NCC(=O)N[C@@H](CS)C(=O)N[C@@H](CCCNC(=N)N)C(=O)N[C@@H](CCCCN)C(=O)N1CCC[C@H]1C(=O)N[C@@H](CS)C(=O)N[C@@H](CCCNC(=N)N)C(=O)N[C@@H](CCCCN)C(=O)N1CCC[C@H]1C(N)=O", "cell line": "HCE-T", "assay": "cytotoxicity, MTT", "setting": "24 h", "IC50": "118 µM"}
{"SMILES": "CCC1(c2ccc(NC(=O)CCC(=O)OC3OC4OC5(C)CCC6C(C)CCC(C3C)C46OO5)cc2)CCC(=O)NC1=O (mixture of isomers)", "cell line": "A2780", "assay": "cell growth or viability, CCK-8", "IC50": "1.05 µM"}
{"SMILES": "Cc1ccc(C(C)C)cc1.O=C(N=P(c1ccccc1)(c1ccccc1)c1ccccc1)c1ccccn1.[Cl-].[Cl][Ru+]", "cell line": "IMR-90", "assay": "cell growth or viability, MTT", "IC50": "30.4 µM"}
{"SMILES": "CC(=O)N[C@H](C(=O)N[C@@H](CCCNC(=N)N)C(=O)N[C@@H](CCCCN)C(=O)N[C@@H](CCCNC(=N)N)C(=O)N[C@H](C(=O)N[C@@H](CC(C)C)C(=O)N[C@@H](CCCNC(=N)N)C(=O)N[C@]1(C)CCCC=CCCC[C@@](C)(C(=O)N[C@@H](CCC(=O)O)C(=O)N[C@@H](CCCNC(=N)N)C(=O)N[C@@H](CCC(=O)O)C(=O)N[C@@H](CC(C)C)C(=O)N[C@H](C(=O)N[C@@H](CCC(=O)O)C(N)=O)C(C)C)NC(=O)[C@H](CC(C)C)NC(=O)[C@H](CC(C)C)NC1=O)[C@@H](C)O)C(C)C", "cell line": "A-431 (wild-type EGFR)", "assay": "cell viability", "setting": "18 h", "IC50": "> 100 µM"}
{"SMILES": "Cc1ccc(C(C)C)cc1.Cc1ccc(C(C)C)cc1.Cc1ccc(C(C)C)cc1.Cc1ccc(C(C)C)cc1.O=S(=O)(O)C(F)(F)F.O=S(=O)(O)C(F)(F)F.O=S(=O)(O)C(F)(F)F.O=S(=O)(O)C(F)(F)F.c1ccc2c3c4ccccc4c(c2c1)-c1cn(nn1)-c1cc[n+](cc1)[Ru-]1[O]c2ccc4c5c(ccc(c25)=[O+]1)=[O+][Ru-]([O]4)[n+]1ccc(cc1)-n1cc(nn1)-c1c2ccccc2c(c2ccccc12)-c1cn(nn1)-c1cc[n+](cc1)[Ru-]1[O]c2ccc4c5c(ccc(c25)=[O+]1)=[O+][Ru-]([O]4)[n+]1ccc(cc1)-n1cc-3nn1", "cell line": "HEK293", "assay": "cell growth or viability, MTT", "setting": "24 h", "IC50": "35.7 µM"}
{"SMILES": "CCOc1ccccc1-n1c(CN2CCNCC2)nc2ccccc2c1=O", "cell line": "PANC-08-13", "assay": "cell growth or viability", "setting": "72 h", "IC50": "0.0607 µM"}
{"SMILES": "Cc1cc(Oc2nc(N3CC[C@@H](c4ccncc4)C3)ncc2F)[nH]n1", "cell line": "RD", "assay": "cell proliferation", "system": "muscle cancer", "IC50": "77.6 µM"}
{"note": "Some of these lines once more:"}
{"SMILES": "Cc1cc(Oc2nc(N3CC[C@@H](c4ccncc4)C3)ncc2F)[nH]n1", "cell line": "RD", "assay": "cell proliferation", "system": "muscle cancer", "IC50": "77.6 µM"}
